# Measurements of several laboratories.
# Numbered parts are unrelated; each lists some results of a single study. Changes are numbered by the printed parent chain.

# Block 1 — method: universal PBM; molecule type: double-stranded DNA, one strand shown; sample: in vitro; tested at: not given; reading: higher = stronger binding
# Target: Sal-like protein 4, full length isoform B (SALL4, Homo sapiens, UniProt Q9UJQ4-2, residues 1-616)
# Notes: 8-mer, flanks averaged, mean of replicates
Oligonucleotide,E-score
GCCTTGAC,-0.0909
AGGGTCTA,-0.0632
ACGCCCAG,-0.234
GCGCGACC,-0.292
CATACTCG,0.00622
GACACCAC,-0.292
AAAATAAG,0.302
ACGGTAAC,0.0402
ACCTGCAT,-0.0209
AATCAAAA,0.296
TGCACACA,0.15
CTTGGACC,-0.297
ATTTAAAG,0.232
CCCGAGAC,-0.24
AAAAATTC,0.285
ACCTAAAT,0.182
TAGTACCA,0.00044

# Block 2 — target: CCNB3, cyclin fold, Cln2 fusion (human); method: yeast growth competition, sequencing; sample: yeast; notes: weak parent motif; reference: not given; reading: higher = stronger binding
# Starting sequence: RB1 docking peptide (human); PKPLKKLRFDIEG
Change,normalised enrichment score
L7P,0.252
R8A,0.234
K6H,0.103
L4E,0.05
G13T,-0.588
E12N,0.0878
P1F,0.812
G13L,0.223
R8Q,0.195
P3T,-0.123
D10K,0.15
L7M,-0.229
F9C,-0.0176
L7Y,-0.124
G13P,0.191

# Block 3 — method: RNA Bind-n-Seq; molecule type: RNA; sample: in vitro; tested at: 365 nM; reference: no-protein control; reading: higher = stronger binding
# Target: RNA binding protein fox-1 homolog 2, RRM domain, GST-SBP tag (RBFOX2, Homo sapiens, UniProt O43251-10, residues 100-194)
# Notes: natural RNA segment, single round, ends assumed
# All sequences stand within: GGGAGUUCUACAGUCCGACGAUC … UGGAAUUCUCGGGUGCCAA
# Target sequence (chain): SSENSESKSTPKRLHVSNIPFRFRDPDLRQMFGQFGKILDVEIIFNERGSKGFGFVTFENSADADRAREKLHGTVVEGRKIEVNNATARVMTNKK
Oligonucleotide,RBNS enrichment (R)
UGGUAACAGGAGUGAGUGAGCCCCUCAGACCUGCACUCUGGGUGUCUCCUGCUUUCAAAGGUUCUUAAUAGUGAAUGCUUUAAAAUUAAAGUCAUCACGAAAUGGAAGUU,0.297
GAAGCCUGUUGUACAGAUUUAGAGUCUUACAAUAUGAGGGAAGUUGGUUCUGGGAAGGUAAGAUGUAGCCAGUUUUCAUCUGGGCACCUCUGAAAGAGAAGGAGUGCAGG,1.07
UCAAAUUCUAAUGGAAUUGAGCCGGUUUCUUAUCCUAAAUGUUUCCUCCCUUUUUACAAUCUCUGUCCAGCACCUCUUGGUUAAAUAAUGUAUGCUGUGAGACAUGAAAU,0.751
UGCUCUCUGUUUCCAGUGAUUAAACACCCAUAACCAACGUUGCUGUCUGCUGCCACUGACAGUCCAGUGAAUCCUUUUCUGUCUGUUCCUAACAACUUUUAUUUGACACA,0.541
UUUACACACCCCAGCUCCCGUUAAAUUCUCCUGUGACUGCUAACAAACCCAUGUCUGCUUUCAGACAUCCCAGGGUGUUUCUCUCGAACAUGCCAUCUGGUGCCAAAUGA,0.797
GGAAGGGGAAGCCCCCACACAGAGACCCCACUGGGACACUGCCUAGUAGAGCUGUCAGAAGAAGGCCACCGUCCUCCAGACAUCAGAAUGGUAUAUCCACUGACAGCUUG,0.213
GUUUCCCAGAAAAUGUGGAGCCAGAGAGAAACAGGCGGACGUGUGUUAGUUACCACGAUGGUGUUUAAAUCAACACCCUAGCACGCUACCUGUCGGCCUGUUGGUGUCUG,0.263
UCAAGGCCCCAGUGGCAACCAUGUGGUAAGUGGCCAACCAAGCCCUACCCAGGGUCACCCAACACACUCUGCCUUGAGCCUCUCCUCAGGGUCUAUUCCUUGCGUGGAUU,0.343
GAUUUUUAUUUAAGAAUAAAAGAGUACUUUGAUCAUGAGACAUAGGUAUCUUGUCCCUCUCACUAAAAAGGAGUGUUGUGUGUGGCGGCCACGUGCUUCUAUGUGGUGUU,0.491
AAGUGUGGGCCUUGCCUGGAAAGGAUGUUAUCACUGUCCUGCUCACAGGAACAGCCCUCUUAAUCUGAGCCUGCCUAUGCUGGCAUUCUUUGCCAGUAAUGGGACACUUC,0.254
GAUUAGUUAUGCAGUAUUUCUUAUCAAUGUCUAGCCCUUGUGUAUUGUUCUGAAAACUAAAGUUUAAAUCUUUAUGCUGUUGCUUGCUAGAUAUCCUGUUCUUUGGUAGA,1.52
GAAAUGCAGUAAAGCCAGGGAAUUUACAAUAACAUUUCCGUUUCCAUCAUUGAAUAAGUCUUAUUCAGUCAUCGGUGAGGUUAAUGCACUAAUCAUGGAUUUUUUGAACA,0.285

# Block 4 — method: competition protein-binding microarray; molecule type: double-stranded DNA, one strand shown; sample: in vitro; tested at: 2 µM; with: Cbf1 competitor, 0.05 µM; reading: higher = stronger binding; all sequences stand within: … GTCTTGATTCGCTTGACGCTGCTG
# Target: Phosphate system positive regulatory protein PHO4, full length, GST-tagged (PHO4, Saccharomyces cerevisiae, UniProt P07270, residues 1-312)
# Notes: whole 60-bp probe, lowest competitor level
# Construct (chain): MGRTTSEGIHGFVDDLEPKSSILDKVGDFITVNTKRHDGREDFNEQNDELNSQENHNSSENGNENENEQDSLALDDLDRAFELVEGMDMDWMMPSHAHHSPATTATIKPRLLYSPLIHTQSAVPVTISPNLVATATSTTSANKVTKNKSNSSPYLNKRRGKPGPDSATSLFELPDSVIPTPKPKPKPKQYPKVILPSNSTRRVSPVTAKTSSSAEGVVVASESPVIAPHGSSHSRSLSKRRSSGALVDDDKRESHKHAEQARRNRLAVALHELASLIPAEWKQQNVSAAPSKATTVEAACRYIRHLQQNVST
Oligonucleotide,fluorescence intensity
TTGCTCGAACATTGTCATGTGATGCTAAACATTGTA,6860 a.u.
TGCTCTATGATGTTGCACATGCACTTGTTTTGTTGT,10700 a.u.
CATACCCAACCTTGTCACGCGACTTAAGATATTTGT,10200 a.u.
ACCAGTAAACTCTGTCATGTGACGGTGGGTGTTGGA,7640 a.u.
TTCTTTGGTGATTCTGGCGTGATGGAACATTCGTAT,5570 a.u.
TGTCATATTCATTTGCACGTTCTTTTTTTAATTTAT,15100 a.u.
CGGGGTTAAGTTTGCACTGTGGGTGGCTTGCAGCAG,5050 a.u.
TTTGGGAAGACTTAGCACGTTATATACTATTAATGA,9240 a.u.
GAATCAAAGGGTTTATCCGTGTCTGAACGCAATGTG,4770 a.u.
GAGCAGCGCCCATACAATGTGCGGGCAAGATTTGCC,6340 a.u.
CAGAATTTAGGCCTACACGATGGATGAAAAGGTGTA,6970 a.u.
AGGCCAATGCTGCTAAGCGTGCTAAAGCTAAGGCTC,7830 a.u.
TGCTCTCGAAGCCGTCACGTGCGGATCTAGGCCTGC,17100 a.u.
CTTTCCCGATCTTGACACGTGTTTTTAGCACATTTG,16200 a.u.
CCACAATCACTAGACCATGTGATTTGTATTTTTCGG,9290 a.u.
CACTACGGAAGAAGCGTCGTGGCCGGATGGAAAGCA,6830 a.u.
ATCATCGAGTGAAGTATCGTGACTCGTACATTTGAA,5630 a.u.
CGCCATTACGACAATCACATGGTTGTTAAATCGCGG,9000 a.u.
CATACCCAACCTTTTCACGTGGGGTAAGATATTTGT,16700 a.u.
AAATTACTAAGTTTTCACGTGGGCTACCCCGTATGA,15900 a.u.
CGTCCTAGTGATTGTCACGTGGGTGCCATGAGGAAG,18200 a.u.
CGAAGATTGCCGCGATCCGTGACTCGAAGCTACACC,4080 a.u.
CACGATAATTTATACGTAATCTGGCCCCTTCTTTCG,3250 a.u.

# Block 5 — method: DHFR PCA, deep sequencing; sample: yeast; with: (+)-ABA 0.0091 µM; reference: wild-type fitted maximum; reading: higher = stronger binding
# Target: ABI1, truncated, D143A, DHFR fusion (Arabidopsis thaliana)
# Notes: methotrexate growth selection, single substitutions
# Starting sequence: PYL1, truncated, DHFR fusion (Arabidopsis thaliana); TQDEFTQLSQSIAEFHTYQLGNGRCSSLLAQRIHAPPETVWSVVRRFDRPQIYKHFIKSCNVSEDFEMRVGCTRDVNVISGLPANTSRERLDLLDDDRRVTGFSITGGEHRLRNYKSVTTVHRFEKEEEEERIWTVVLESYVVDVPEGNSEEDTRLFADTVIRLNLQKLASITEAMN
Change,relative binding score
D144A,-1.32%
R49S,16.2%
D65M,11.3%
L164Q,3.67%
D153P,-1.58%
K126G,59.9%
Y141S,-3.03%
N114C,13.5%
H110S,50.4%
K116S,13%
L28W,-3.71%
K116L,0.485%
R24K,48.4%

# Block 6 — method: protein-binding microarray; molecule type: double-stranded DNA, one strand shown; sample: in vitro; tested at: 250 nM; notes: 60-bp whole probe; with: salmon DNA 0.4 mg/ml; reference: random background probes; reading: higher = stronger binding; all sequences stand within: GCCTAGCAC … GTCTTGATTCGCTTGACGCTGCTG
# Target: Interferon regulatory factor 5, full length, phosphomimetic (IRF5, Homo sapiens, UniProt Q13568-2, residues 1-514, K96S/S451D/S453D/S456D/S462D)
Oligonucleotide,log fluorescence
GACGGTTTCAGGTTTCGGGACGTGCTA,4.56 z-score
TTAGAACTGGGGACTGGATTGGTGCTA,-0.174 z-score
TTAGGTCTCAGTTTCGGTTAGTGCTAG,9.42 z-score
TTATATTTCAGACTGGATTAGTGCTAG,0.775 z-score
GACTGTTTCGGTATCGGGACGTGCTAG,9.96 z-score
TTAGGACTGGACTTTCGGTTCGTGCTA,8.52 z-score
TTAGATATCAGTAACGATTAGTGCTAG,1.28 z-score
GACGGTATCGGTACCGGGACGTGCTAG,4.89 z-score
ATTCTCTTCTTGCATCTGGGTGTGCTA,0.772 z-score
GACGGTTTCGGGTATTGGGACGTGCTA,7.81 z-score
TTAGGTTTCGGTCTCTGTTAGTGCTAG,10.1 z-score
TCATATCCCTAATCTCAGACTGTGCTA,0.518 z-score
CCTACCGCCCTTACCGCCGCGTGCTAG,-0.564 z-score
TAAGGTATAAACTTGGGAAAGTGCTAG,0.0216 z-score
TTAGGTTTCGGGTTACGGTTAGTGCTA,8.77 z-score
ATTGCTTCCTCTTTACTGCTGTGCTAG,0.676 z-score
TGTGCTTTCCTGATGGTTTTGTGCTAG,0.692 z-score
CGCCCTCTCAACCATCCTGGGGTGCTA,-0.393 z-score
TCACCTCTTTCTCTGCTACTGTGCTAG,1.32 z-score
TCATGTATGAGCCTCTGACTGTGCTAG,-0.178 z-score
GACGGTTTCGATTATCGGGACGTGCTA,9.14 z-score
GGGCATTTTTTTATCAATCAGTGCTAG,0.445 z-score
TTAGATCTCAGTTTCGATTCGTGCTAG,8.93 z-score

# Repeated from above (block 4):
Oligonucleotide,fluorescence intensity
CGGGGTTAAGTTTGCACTGTGGGTGGCTTGCAGCAG,5050 a.u.
TTTGGGAAGACTTAGCACGTTATATACTATTAATGA,9240 a.u.
GAATCAAAGGGTTTATCCGTGTCTGAACGCAATGTG,4770 a.u.
GAGCAGCGCCCATACAATGTGCGGGCAAGATTTGCC,6340 a.u.
CAGAATTTAGGCCTACACGATGGATGAAAAGGTGTA,6970 a.u.
